Published values collected from several papers.
Every numbered part comes from another study and shows a few of its results, in no order.

Set 1
Target: RNA binding protein fox-1 homolog 2, RRM domain, GST-SBP tag (RBFOX2, Homo sapiens, UniProt O43251-10, residues 100-194)
Technique: RNA Bind-n-Seq
Form: RNA
Matrix: in vitro
Tested at: 365 nM
Notes: natural RNA segment, single round, ends assumed
Baseline: no-protein control
Direction: higher = stronger binding
Residues (chain): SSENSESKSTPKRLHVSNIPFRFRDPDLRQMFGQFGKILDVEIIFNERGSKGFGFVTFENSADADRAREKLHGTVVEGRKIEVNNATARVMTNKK
`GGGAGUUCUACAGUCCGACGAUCGGGUGGAAAACUAGAGAGAUCACCCUCGACCUGCCUGGGUAGGGCUGGCAGUAGCUGUCCCAGCCUCAGCUCCUGGCCCGGUCCUGGGGUUCCCUCUUCACAGUCCCCGUUGGAAUUCUCGGGUGCCAA` — result for “RBNS enrichment (R)”: 0.282.
Under “RBNS enrichment (R)”, `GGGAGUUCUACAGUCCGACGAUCGGUUGGGUGGGAAGGAAGGCUGGGGGUUUUGUAAAGUGUCCACUGCUCGUCCUGUUAAUUUUCCUCAAUUUUUCUUCUUCUUCCUUCUGUCCCUCCUGCCUUCCUUCUCUUGGAAUUCUCGGGUGCCAA` is recorded as 2.57.
Under “RBNS enrichment (R)”, `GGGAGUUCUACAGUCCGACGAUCCAGGCUGCUGAGGAGCAGAGGCCAGACCAGGGCCGAUCUGGGUGUCCUGACCCUCAGCUGGCCCUGCCCAGCCACCCUGGACGUGACCGUAUCCCUCUGCCACACCCCAGUGGAAUUCUCGGGUGCCAA` is recorded as 0.16.
`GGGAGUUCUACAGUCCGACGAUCGAAGGCUGAGCACUUAUCUGGAUCAUUUGGUCAGUUUGGUAAUUCCUGCUCCACACCCCUAUUUUCCUCUUAAUAAUACGUUUGGGUGAAGACAAAUUAGUGUUUAGUAAUGGAAUUCUCGGGUGCCAA` — result for “RBNS enrichment (R)”: 0.379.
Under “RBNS enrichment (R)”, `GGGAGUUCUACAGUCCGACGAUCACAGCAGCCUGGCGUCAGUGACUGGUACCCCUUCUCCUGUGUCCAGUGCAGCCAUGGCAUGCCAGAGAAGUGGCAGCUGCCGCUGUGAGCCACGCAGGAUCCCGUGUCCUUGGAAUUCUCGGGUGCCAA` is recorded as 0.503.
`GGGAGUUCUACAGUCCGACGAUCAGGCUUUGCUUACUAAGUUUCUGAGUGGCGGAGUGGCCAAACCCUAGAGCUAGCAGUUCCCAUUCAGGCAAACAAGGGCAGUGGUUUUGUUUGUGUUUUUGGUUGUUCCUUGGAAUUCUCGGGUGCCAA`: “RBNS enrichment (R)” 0.465.
`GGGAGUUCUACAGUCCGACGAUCAGGCCGCCCAGCUGCUGUGACUUAGAUAAUGAAAAGCUUCAACUCACCACCGUCAUUUUUUUUUCUUUUUCCUUUUUGUGCGUGUGUGGUUUUUAAUCUGUAUAUACUGUUGGAAUUCUCGGGUGCCAA` — result for “RBNS enrichment (R)”: 0.643.
`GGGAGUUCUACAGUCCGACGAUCGAAUUAUGUUUCCGAGGCACUGUUUUAUCUCUGUGAAUCUUGAAUAACUUUUUUAUAUUUGGGUUAUGAUGUCAAACGAUCCUAAGCGAAGAUGAUUUCAGUUCAUCAAAUGGAAUUCUCGGGUGCCAA` — result for “RBNS enrichment (R)”: 0.69.
`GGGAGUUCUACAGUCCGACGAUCAGAGCCACAGAAUUGCUUUCCUUCCCCGCCUUUGACAUGAGGCCUUCAGUAAAGAGCUACAGAACAUGAGUACAUUGUUAUACCACAGAUUUUUCUUGCAUUAGGGCACAUGGAAUUCUCGGGUGCCAA`: “RBNS enrichment (R)” 1.26.
Under “RBNS enrichment (R)”, `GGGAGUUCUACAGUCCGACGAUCAGCACUGUUUUCAUCACAACUUGUUUUCCCAGCAUCAUGUAGUGCAUUUAGUUUUGUCUUUCUCAGGGUAUAGUCAAUAUGCCUGCAGGAGUUUCUAUAGCGAGACAUAGUGGAAUUCUCGGGUGCCAA` is recorded as 0.394.
`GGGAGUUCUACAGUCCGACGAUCUAAAAUUAGACUUCCUUCCCUCACUAUAUAUCUUUAUGCAGUCAGAAUAUUUCCAACAGUGUUUUUUGCAAAUUAGAGCAGGACAAACUUUUAUGUUUACAGGGCACGUCUGGAAUUCUCGGGUGCCAA` — result for “RBNS enrichment (R)”: 0.675.
Under “RBNS enrichment (R)”, `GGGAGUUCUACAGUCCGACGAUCGGACGAGGUCAAGGAGAUAUGAUAGGCCCGGAAGUUGCUGUGCCCCAUCAGCAGCUUGACGCGUGGUCACAGGACGAUUUCACUGACACUGCGAACUCUCAGGACUACCGUGGAAUUCUCGGGUGCCAA` is recorded as 0.406.

Set 2
Target: Prothrombin, mature alpha-thrombin (F2, Homo sapiens, UniProt P00734)
Technique: aptamer microarray, sandwich
Form: DNA with 2'F-ANA
Matrix: in vitro
Tested at: 200 nM
Notes: whole 15-mer aptamer, many near background
Together with: Cy3 exosite-II aptamer, 400 nM
Direction: higher = stronger binding
Strand: GGTTGGTGTGGTTGG
`2'F-ANA at 1 5 8 9 15` — result for “mean fluorescence intensity”: 63.3 a.u.
`2'F-ANA at 3 4 6 7 8 9 13`: “mean fluorescence intensity” 430 a.u.
For `2'F-ANA at 1 5 6 7 9 11 13`, “mean fluorescence intensity” read 64.8 a.u.
Under “mean fluorescence intensity”, `2'F-ANA at 3 4 6 8 9 11 12 13 15` is recorded as 478 a.u.
`2'F-ANA at 4 5 8 10 11 12 13`: “mean fluorescence intensity” 44.2 a.u.
`2'F-ANA at 2 3 4 5 7 12 14 15` — result for “mean fluorescence intensity”: 53.7 a.u.
`2'F-ANA at 1 2 3 5 6 7 9 10 11 13 15`: “mean fluorescence intensity” 61.3 a.u.
`2'F-ANA at 1 2 3 5 6 7 9 10 12 15`: “mean fluorescence intensity” 49.3 a.u.
`2'F-ANA at 3 7 10 11 12 13 14`: “mean fluorescence intensity” 466 a.u.
Under “mean fluorescence intensity”, `2'F-ANA at 2 3 4 5 12 13 14` is recorded as 49.8 a.u.
`2'F-ANA at 1 2 3 6 7 8 10 12 15` — result for “mean fluorescence intensity”: 91.3 a.u.
`2'F-ANA at 4 6 7 10 11 12 13 15` — result for “mean fluorescence intensity”: 75.9 a.u.
`2'F-ANA at 1 3 5 13` — result for “mean fluorescence intensity”: 63 a.u.
Under “mean fluorescence intensity”, `2'F-ANA at 1 2 3 5 6 9 10 13` is recorded as 47.6 a.u.
`2'F-ANA at 1 2 4 5 6 7 8 9 10 13 14`: “mean fluorescence intensity” 70.8 a.u.
`2'F-ANA at 1 4 5 8 10 12 14`: “mean fluorescence intensity” 46.4 a.u.
`2'F-ANA at 1 4 6 11 12 13 14`: “mean fluorescence intensity” 49.4 a.u.
`2'F-ANA at 1 5 15`: “mean fluorescence intensity” 136 a.u.
For `2'F-ANA at 1 3 10 13`, “mean fluorescence intensity” read 76.9 a.u.
For `2'F-ANA at 2 5 6 8 9 10 11 13 14`, “mean fluorescence intensity” read 47.5 a.u.
Under “mean fluorescence intensity”, `2'F-ANA at 6 8 9` is recorded as 532 a.u.
`2'F-ANA at 1 2 3 5 6 9 12 14`: “mean fluorescence intensity” 46.7 a.u.

Set 3
Target: Interferon regulatory factor 3, full length, phosphomimetic (IRF3, Homo sapiens, UniProt Q14653, residues 1-427, S386D/S396D/S398D/S402D/T404D/S405D)
Technique: protein-binding microarray
Form: double-stranded DNA, one strand shown
Matrix: in vitro
Tested at: 2540 nM top
Notes: 60-bp whole probe
Together with: salmon DNA 0.4 mg/ml
Baseline: random background probes
Direction: higher = stronger binding
Constant ends, left off below: GCCTAGCAC … GTCTTGATTCGCTTGACGCTGCTG
Residues (chain): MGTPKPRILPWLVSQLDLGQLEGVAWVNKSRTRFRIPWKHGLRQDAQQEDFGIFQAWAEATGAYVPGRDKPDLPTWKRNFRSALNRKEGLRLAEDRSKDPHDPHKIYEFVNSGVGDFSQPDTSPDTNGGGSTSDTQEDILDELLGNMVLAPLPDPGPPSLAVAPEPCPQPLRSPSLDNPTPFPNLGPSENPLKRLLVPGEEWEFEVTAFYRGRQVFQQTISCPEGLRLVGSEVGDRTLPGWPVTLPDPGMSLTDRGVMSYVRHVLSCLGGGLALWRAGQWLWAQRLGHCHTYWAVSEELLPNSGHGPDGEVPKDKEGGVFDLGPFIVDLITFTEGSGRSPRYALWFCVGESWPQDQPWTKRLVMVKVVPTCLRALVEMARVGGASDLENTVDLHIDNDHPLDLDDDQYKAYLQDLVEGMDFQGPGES
For `TTATGTTTCGGTTTCGGTTAGTGCTAG`, “fitted relative affinity” read 11.3 z-score.
`TTAGGTATCCTTATCCGTTAGTGCTAG` — result for “fitted relative affinity”: 5.15 z-score.
`TTAGGTATCCTTATCATTTAGTGCTAG`: “fitted relative affinity” 5.14 z-score.
`TTAGATTTCGGGTTTCGATAAGTGCTA` — result for “fitted relative affinity”: 3.16 z-score.
Under “fitted relative affinity”, `TTTTTTTTTTGTATTTTTGAGTGCTAG` is recorded as 1.9 z-score.
`GACGAACTGGGGTATCGAGCCGTGCTA`: “fitted relative affinity” -0.591 z-score.
Under “fitted relative affinity”, `GACGATTTCAGTATCGCGACGTGCTAG` is recorded as 2.28 z-score.
`ATTTGTCCCTATTTAAGAGAGTGCTAG`: “fitted relative affinity” 2.48 z-score.
For `TTAGGACTGCTACTCCTTTAGTGCTAG`, “fitted relative affinity” read -0.444 z-score.
Under “fitted relative affinity”, `GACGGACTTGACTATCGGGACGTGCTA` is recorded as -0.351 z-score.
Under “fitted relative affinity”, `GACGGACTGGGGATCGGGACGTGCTAG` is recorded as -0.515 z-score.
`GACGGACTGGTCTTTCGGGACGTGCTA` — result for “fitted relative affinity”: -0.243 z-score.
`GACGGACTGGACCCTGGGGACGTGCTA` — result for “fitted relative affinity”: -0.81 z-score.
For `AGTCATCTCCAAAGTCAGCCAGTGCTA`, “fitted relative affinity” read 0.118 z-score.
`GACGGTCTCGGTAACGGGACGTGCTAG` — result for “fitted relative affinity”: 0.322 z-score.
`TTAGATATTGGGTTTCGATTAGTGCTA` — result for “fitted relative affinity”: 1.59 z-score.
For `TTAGATTTAGGGTTTCGATTAGTGCTA`, “fitted relative affinity” read 1.55 z-score.
For `TTAGGACTCCTTATCCTTTAGTGCTAG`, “fitted relative affinity” read 1.26 z-score.
`GTCGGTTCCGGTTTCGGGACGTGCTAG`: “fitted relative affinity” 7.02 z-score.
Under “fitted relative affinity”, `GATGGTATCGGACTGGGGACGTGCTAG` is recorded as 0.967 z-score.
Under “fitted relative affinity”, `TTAGAACTGAGACTGGTTTAGTGCTAG` is recorded as -0.35 z-score.
`GACGGTATCGACTTTCGAGACGTGCTA`: “fitted relative affinity” 1.2 z-score.
`CCAACACTCGGTTTCCAAATGTGCTAG`: “fitted relative affinity” 4.73 z-score.
`TTAGTTTTCGACACTGGGTTAGTGCTA` — result for “fitted relative affinity”: 1.36 z-score.
`GACGGTTTCGACACTCGGGACGTGCTA`: “fitted relative affinity” 2.91 z-score.

Set 4
Target: Sal-like protein 4, full length isoform A (SALL4, Homo sapiens, UniProt Q9UJQ4, residues 1-1053)
Sequence of UniProt Q9UJQ4 (whole entry, looked up): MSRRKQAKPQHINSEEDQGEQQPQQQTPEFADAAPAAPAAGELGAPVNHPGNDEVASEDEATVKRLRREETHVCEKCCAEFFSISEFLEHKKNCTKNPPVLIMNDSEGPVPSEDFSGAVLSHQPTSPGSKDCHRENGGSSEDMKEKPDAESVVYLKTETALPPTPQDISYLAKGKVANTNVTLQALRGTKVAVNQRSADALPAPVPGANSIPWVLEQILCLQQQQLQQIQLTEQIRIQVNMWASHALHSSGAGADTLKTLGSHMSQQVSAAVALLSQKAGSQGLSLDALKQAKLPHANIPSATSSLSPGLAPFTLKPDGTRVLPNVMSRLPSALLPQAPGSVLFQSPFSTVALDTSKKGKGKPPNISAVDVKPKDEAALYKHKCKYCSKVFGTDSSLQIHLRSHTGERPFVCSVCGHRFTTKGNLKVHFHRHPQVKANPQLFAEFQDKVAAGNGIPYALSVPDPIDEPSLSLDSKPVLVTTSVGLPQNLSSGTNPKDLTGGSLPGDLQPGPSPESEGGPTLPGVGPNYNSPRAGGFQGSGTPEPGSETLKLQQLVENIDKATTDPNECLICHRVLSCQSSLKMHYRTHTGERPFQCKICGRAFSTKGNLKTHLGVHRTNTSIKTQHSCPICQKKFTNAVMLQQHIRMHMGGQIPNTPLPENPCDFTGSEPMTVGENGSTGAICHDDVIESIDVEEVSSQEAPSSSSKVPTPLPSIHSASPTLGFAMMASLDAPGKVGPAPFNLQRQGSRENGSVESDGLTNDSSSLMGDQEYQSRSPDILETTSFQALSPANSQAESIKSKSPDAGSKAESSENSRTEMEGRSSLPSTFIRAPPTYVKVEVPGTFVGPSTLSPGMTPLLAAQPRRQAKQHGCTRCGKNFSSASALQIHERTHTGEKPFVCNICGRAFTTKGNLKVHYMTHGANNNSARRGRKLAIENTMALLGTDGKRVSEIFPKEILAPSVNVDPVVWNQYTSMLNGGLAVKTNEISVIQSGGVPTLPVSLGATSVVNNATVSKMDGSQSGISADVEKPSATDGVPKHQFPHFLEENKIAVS
Technique: universal PBM
Form: double-stranded DNA, one strand shown
Matrix: in vitro
Tested at: 600 nM
Notes: 8-mer, flanks averaged, mean of replicates
Direction: higher = stronger binding
For `CGGAACAA`, the E-score was 0.043.
The E-score of `GTGTAGTA` is reported as 0.0727.
For `CAGGTCAG`, the E-score was -0.0978.
With `AAGGCTGC` the E-score was -0.156.
The E-score of `GGTAGTAC` is reported as -0.0467.
With `CGGCCAAA` the E-score was -0.087.
`ACAAGTCC` has an E-score of -0.0274.
For `AGGTCAAA`, the E-score was 0.0387.
The E-score of `CTTTGATC` is reported as -0.049.
The E-score of `CAGAAGTA` is reported as 0.264.
With `ACACACCT` the E-score was 0.0797.
For `GACTCTCC`, the E-score was -0.104.
With `AAATAAAA` the E-score was 0.336.
`CCTAGATA` gave an E-score of 0.0998.
The E-score of `AATTCAAG` is reported as 0.213.
The E-score of `TCAAGCCA` is reported as 0.00076.
With `CTTTGGTA` the E-score was 0.00715.
For `ATTGGTGG`, the E-score was 0.17.

Some of these lines once more (set 2):
Under “mean fluorescence intensity”, `2'F-ANA at 2 3 4 5 12 13 14` is recorded as 49.8 a.u.
`2'F-ANA at 4 6 7 10 11 12 13 15` — result for “mean fluorescence intensity”: 75.9 a.u.
`2'F-ANA at 1 5 8 9 15` — result for “mean fluorescence intensity”: 63.3 a.u.
`2'F-ANA at 1 4 6 11 12 13 14`: “mean fluorescence intensity” 49.4 a.u.
For `2'F-ANA at 1 3 10 13`, “mean fluorescence intensity” read 76.9 a.u.
`2'F-ANA at 4 5 8 10 11 12 13`: “mean fluorescence intensity” 44.2 a.u.
Under “mean fluorescence intensity”, `2'F-ANA at 1 2 3 5 6 9 10 13` is recorded as 47.6 a.u.
`2'F-ANA at 3 4 6 7 8 9 13`: “mean fluorescence intensity” 430 a.u.
